Published values gathered from unrelated publications.
Every numbered part comes from another study and shows a few of its results, in no order.

Series 1 — method: RNA Bind-n-Seq; molecule type: RNA; matrix: in vitro; concentration: not given; relative to: input RNA pool; direction: higher = stronger binding
Target: RING finger protein unkempt homolog, zinc fingers 1-6, GST-SBP tag (UNK, Homo sapiens, UniProt Q9C0B0, residues 30-357)
Sequence of UniProt Q9C0B0 (30-357, looked up): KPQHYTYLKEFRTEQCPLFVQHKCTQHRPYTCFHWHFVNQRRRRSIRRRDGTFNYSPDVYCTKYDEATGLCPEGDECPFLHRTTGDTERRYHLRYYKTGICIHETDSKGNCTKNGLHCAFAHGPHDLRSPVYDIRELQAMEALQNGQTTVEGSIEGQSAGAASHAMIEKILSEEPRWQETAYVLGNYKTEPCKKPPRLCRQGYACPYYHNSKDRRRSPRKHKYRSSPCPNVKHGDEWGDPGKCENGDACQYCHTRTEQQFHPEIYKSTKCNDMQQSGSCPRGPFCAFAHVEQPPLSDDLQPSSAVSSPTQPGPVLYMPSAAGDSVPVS
Notes: RNA with constant flanks, human and mouse sites, ends assumed
Shared flanks, not repeated: GGGAGUUCUACAGUCCGACGAUC … CAACAGAGGAUUGAGCAUCA
Oligonucleotide | bound/input enrichment
UGCUGCAGGAAAAGAGAUCAUAUGGCACGGGCGGACAAAAGAAGAACCAGCUCAUUAUUGUAGUAUUUGUGAGGUGGAGGUUUUUGAUCUGCUUUUUGUCACUAAUGAGAGUAAUUCUCG | 0.202 ratio
CAUCAAAAUGUUUCAUAUCAAGAUGAUUCUAAGCUAUCCCAGAGGAAGUUUACCAUUCUUAAUUUUAAUGAUUUGGUAGCAUCUGCUAUUCCUAUGACACCUGAGGAUCCUUCAUUUUGG | 0.146 ratio
GAAGUGUGGCAGGUGAUCAUAGGAGCCAGAGCUGAGAUGACUUCAAAACACCAAGAGUACUUGAAGCUGGAAACCACUUGGAUGACUGCAGUUGGUCUUUCAGAGAUGGCAGCAGAAGCU | 0.446 ratio
AAGAUUGAUGACAUUCGUAAGCCUGGAGAAUCUGAAGAAUGAAGACAUUGAGAAAACUAUGUAGCAAGAUCCACUUCUGUGAUUAAGUAAAUGGAUGUCUCGUGAUGCAUCUACAGUUAU | 0.196 ratio
GAUAUUGUGCUUGCCAUCCUCGAAUUACUUAAGUAUCAUCAGAGAGUCUUAUAUAUUGACAUAGACAUCCACCAUGGUGAUGGUGUUGAGGAAGCUUUUUAUACAACAGAUCGCGUGAUG | 0.348 ratio

Series 2 — method: RNA Bind-n-Seq; molecule type: RNA; matrix: in vitro; concentration: 200 nM; notes: whole 134-nt RNA, ends assumed; with: 150 mM LiCl; relative to: input library; direction: higher = stronger binding; all molecules: 7-deaza-guanosine replaces G
Target: Ras GTPase-activating protein-binding protein 1, full length (G3BP1, Homo sapiens, UniProt Q13283)
Sequence of UniProt Q13283 (whole entry, looked up): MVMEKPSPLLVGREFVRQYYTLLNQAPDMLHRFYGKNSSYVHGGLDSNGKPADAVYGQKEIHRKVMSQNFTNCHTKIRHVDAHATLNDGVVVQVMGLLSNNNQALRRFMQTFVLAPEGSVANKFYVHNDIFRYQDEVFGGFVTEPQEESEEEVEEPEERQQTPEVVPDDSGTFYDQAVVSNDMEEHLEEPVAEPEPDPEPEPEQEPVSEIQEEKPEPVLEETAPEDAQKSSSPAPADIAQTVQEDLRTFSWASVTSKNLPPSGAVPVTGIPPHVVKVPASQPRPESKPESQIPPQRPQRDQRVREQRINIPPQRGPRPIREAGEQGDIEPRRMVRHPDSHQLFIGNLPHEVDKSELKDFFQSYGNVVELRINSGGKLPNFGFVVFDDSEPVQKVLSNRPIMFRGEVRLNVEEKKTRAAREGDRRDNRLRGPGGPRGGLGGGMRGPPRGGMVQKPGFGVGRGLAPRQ
Oligonucleotide | log2 enrichment
GGGAGUUCUACAGUCCGACGAUCUUGUGAGAGCCACAGGAAAAGCAAGAAGGAGAAGAAGAAAAAGAAAAAGAGGAAACACAAGAAAGAGAAGAAGAAGAAAGACAAAGAGCAUGGAAUUCUCGGGUGUCAAGG | 0.213
GGGAGUUCUACAGUCCGACGAUCGUCCUGUGCUACACAUCGUAUGUACCGAAUCGGAAAAAAAGGUUUUUUUGGUUUUUGGAAAGUAUUAUGUUACGCCGUUCGGAUCUGCACUGGAAUUCUCGGGUGUCAAGG | -2.78
GGGAGUUCUACAGUCCGACGAUCCUCAAGUCCUGUGCUACACAUCGUAUGUACCGAAUCGGGGUUGGUUGGUUGGGAAAGUAUUAUGUUACGCCGUUCGGAUCUGCACUUCCAUGGAAUUCUCGGGUGUCAAGG | -0.0468
GGGAGUUCUACAGUCCGACGAUCGCAGGAAGUAAAAACAAAUGGAAAUGCUUCGGAUAGUGGCAGGGGUGGGGGUUGCUAAGGAAAGGGUGGGAUGGGAGUUGGUAAAGAGUUUGGAAUUCUCGGGUGUCAAGG | -0.00809

Series 3 — method: aptamer microarray, sandwich; molecule type: DNA with 2'F-ANA; matrix: in vitro; concentration: 200 nM; with: Cy3 exosite-II aptamer, 400 nM; direction: higher = stronger binding; oligonucleotide: GGTTGGTGTGGTTGG
Target: Prothrombin, mature alpha-thrombin (F2, Homo sapiens, UniProt P00734)
Notes: whole 15-mer aptamer, many near background
Modification | mean fluorescence intensity [a.u.]
2'F-ANA at 1 2 4 5 9 12 13 14 15 | 48.1
2'F-ANA at 2 3 4 7 8 9 10 12 13 14 | 199
2'F-ANA at 4 5 8 9 11 12 13 14 | 83.6
2'F-ANA at 2 5 6 10 15 | 46.3
2'F-ANA at 1 2 3 4 5 7 9 11 12 | 95.8

Single results of other studies
Molecule | target | test | test system | conditions | how to read | quantity | result
PhoQ, residues 284 288 289 292 302 303 AMDMFI | PhoP, residues 12 14 15 18 19 LYHSL (Escherichia coli, UniProt P23836) | Sort-seq, refers to: YFP reporter | E. coli | PhoQ-PhoP variant library, with: 10 µM Mg2+ | relative to: high Mg2+ state, higher = stronger signaling | fold induction | 0.344
